Experimental data from different studies.
Numbered parts are unrelated; each lists some results of a single study.

Set 1
Target: Histone acetyltransferase KAT6A, both winged helices, GST fusion (KAT6A, Homo sapiens, UniProt Q92794, residues 1-181)
Method: protein binding microarray
Molecule type: double-stranded DNA, one strand shown
Medium: in vitro
Concentration: not given
Notes: 8-mer, flanks averaged, mean of 2 arrays, mostly near background
Baseline: not given
Direction: higher = stronger binding
Residues (chain): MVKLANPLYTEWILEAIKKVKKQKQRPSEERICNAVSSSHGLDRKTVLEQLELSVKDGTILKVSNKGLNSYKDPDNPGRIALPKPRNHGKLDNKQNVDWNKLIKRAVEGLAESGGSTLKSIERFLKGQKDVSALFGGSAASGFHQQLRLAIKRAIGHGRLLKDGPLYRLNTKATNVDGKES
With `AGCGGTTC` the E-score was 0.0999.
For `CGCATAAG`, the E-score was 0.14.
`ATGTAGAC` has an E-score of -0.017.
`CGTACAAG` has an E-score of 0.0478.
`ATAAGCTG` has an E-score of -0.0259.

Set 2
Target: PABPC1L2, full length, GST fusion (mouse, UniProt A0ABA7IW68)
Method: RNAcompete
Molecule type: RNA
Medium: in vitro
Concentration: 20 nM
Notes: 7-mer, probes averaged, single round
Baseline: mean of 7-mers
Direction: higher = stronger binding
Residues (chain): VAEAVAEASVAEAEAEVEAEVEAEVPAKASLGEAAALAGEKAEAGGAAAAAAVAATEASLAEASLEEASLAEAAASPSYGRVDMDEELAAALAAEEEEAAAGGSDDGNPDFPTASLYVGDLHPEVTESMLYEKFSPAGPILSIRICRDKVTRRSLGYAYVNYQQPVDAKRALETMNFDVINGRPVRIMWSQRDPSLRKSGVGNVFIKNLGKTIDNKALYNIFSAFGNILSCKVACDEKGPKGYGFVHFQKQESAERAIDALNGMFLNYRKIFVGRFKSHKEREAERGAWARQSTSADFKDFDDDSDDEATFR
`CACAUUU` gave a 7-mer Z-score of -0.104.
`CCGACGA` has a 7-mer Z-score of -0.119.
`UUACGGG` has a 7-mer Z-score of 0.0551.
`UGCGUGC` has a 7-mer Z-score of -0.193.
`GCGGCUU` gave a 7-mer Z-score of -0.0047.
`ACUGCUA` gave a 7-mer Z-score of -0.237.

Set 3
Target: RNA binding protein fox-1 homolog 2, RRM domain, GST-SBP tag (RBFOX2, Homo sapiens, UniProt O43251-10, residues 100-194)
Method: RNA Bind-n-Seq
Molecule type: RNA
Medium: in vitro
Concentration: 365 nM
Notes: natural RNA segment, single round, ends assumed
Baseline: no-protein control
Direction: higher = stronger binding
All sequences stand within: GGGAGUUCUACAGUCCGACGAUC … UGGAAUUCUCGGGUGCCAA
Residues (chain): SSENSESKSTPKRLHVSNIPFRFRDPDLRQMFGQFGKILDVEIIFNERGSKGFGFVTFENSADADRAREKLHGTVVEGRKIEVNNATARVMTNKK
`UUUUCUUUACUGUAUGAAAACAGGAAAAUAAAAGAGAAAUUUAGAAAAUACAGCUCAUUACAAUAAAUUGUUGGAUUUCAUUUCCCCAGGUCUUCAGUGUUGAUGUAAAU`: “RBNS enrichment (R)” 0.6.
Under “RBNS enrichment (R)”, `GAAUGAGAUGGGAAAGAGGUAACAAAAUAACCUGCUGCCACCUCUUCUCUGGGUGGCUCAGCAGGAGCAACUGUGACCUCCUCUCCUAAGGAGACGAAGACCUAACGGGG` is recorded as 0.227.
For `GACGGAGGUCAGGUCUUCCUCUUUCCUGAGACUGGAUCUGUUCAAACAGCAAACGCCCACAGAUGGCCCAGAGGUGGUGGUAGUCAGGGUGUGUGGGUGUUUUUAGGGUU`, “RBNS enrichment (R)” read 1.47.
For `UCCCAACACAAGACAAAGCUCAGGAUGCUGGUGAUGCUAGGAAGAUGUCCCUCCCCUCACUGCCCCACAUUCUCCCAGUGGCUCUACCAGCCUCACCCAUCAAACCAGUG`, “RBNS enrichment (R)” read 0.6.
`GUAAUCUGUUCCCAGUGUGGUAUCUCAAAAUUGUGCUGAGAUUAUCUUAGUAUAUGUAUUGGAUUCCUGUACUUCCAAAGUCCUGGAAUAUAGUUUUUUUAGUAUAAUUC` — result for “RBNS enrichment (R)”: 0.318.

Single results of other studies
With `PhoQ, residues 284 288 289 292 302 303 ASTSDA` the fold induction was 4.65 (PhoP, residues 12 14 15 18 19 HLGGL (Escherichia coli, UniProt P23836); Sort-seq, refers to: YFP reporter; E. coli; PhoQ-PhoP variant library, together with: 10 µM Mg2+; baseline: high Mg2+ state, higher = stronger signaling).
